Published values gathered from unrelated publications.
Compare with care: the assays were run in different laboratories.
Organism: Acinetobacter baumannii

The MIC of `CC(C)C[C@@H](NC(=O)[C@@H](CCCCN)NC(=O)[C@@H](CCCCNC(=O)[C@@H](CC(C)C)NC(=O)[C@@H](CCCCN)NC(=O)[C@@H](CCCCNC(=O)[C@@H](CC(C)C)NC(=O)[C@@H](CCCCN)NC(=O)[C@@H](CCCCNC(=O)[C@@H](CC(C)C)NC(=O)[C@H](N)CCCCN)NC(=O)[C@@H](CC(C)C)NC(=O)[C@H](N)CCCCN)NC(=O)[C@@H](CC(C)C)NC(=O)[C@@H](CCCCN)NC(=O)[C@@H](CCCCNC(=O)[C@@H](CC(C)C)NC(=O)[C@H](N)CCCCN)NC(=O)[C@@H](CC(C)C)NC(=O)[C@H](N)CCCCN)NC(=O)[C@@H](CC(C)C)NC(=O)[C@@H](CCCCN)NC(=O)[C@@H](CCCCNC(=O)[C@@H](CC(C)C)NC(=O)[C@@H](CCCCN)NC(=O)[C@@H](CCCCNC(=O)[C@@H](CC(C)C)NC(=O)[C@H](N)CCCCN)NC(=O)[C@@H](CC(C)C)NC(=O)[C@H](N)CCCCN)NC(=O)[C@@H](CC(C)C)NC(=O)[C@@H](CCCCN)NC(=O)[C@@H](CCCCNC(=O)[C@@H](CC(C)C)NC(=O)[C@H](N)CCCCN)NC(=O)[C@@H](CC(C)C)NC(=O)[C@H](N)CCCCN)C(N)=O` is reported as 8 µg/mL (broth microdilution; ATCC 19606; 37 °C).
`CN1CCC(NCCC2(Cc3ccc(Cl)cc3)CCCCC2)CC1` has an MIC of 100 µM (microbial growth; 10 h).
`CC(=O)N[C@H](CCCCN)C(=O)N[C@H](CC(C)C)C(=O)N[C@H](CCCCN)C(=O)N[C@H](CO)C(=O)N[C@H](CC(C)C)C(=O)N[C@H](CC(C)C)C(=O)N[C@H](CCCCN)C(=O)N[C@@H](C(=O)N[C@H](CC(C)C)C(=O)N[C@H](CO)C(=O)N[C@H](CCCCN)C(=O)N[C@H](C)C(=O)N[C@H](CCCCN)C(=O)N[C@H](CCCCN)C(=O)N[C@H](CCCCN)C(=O)N[C@H](CCCCN)C(=O)N[C@H](CC(C)C)C(=O)N[C@H](CCCCN)C(=O)N[C@@H](C(=O)N[C@H](CC(C)C)C(=O)N[C@H](CC(C)C)C(=O)N[C@H](CCCCN)C(=O)N[C@H](C)C(=O)N[C@H](CC(C)C)C(=O)N[C@H](CO)C(=O)N[C@H](CCCCN)C(N)=O)[C@H](C)O)[C@H](C)O` has an MIC of 0.7 µM (broth microdilution; ATCC 19606; 24 h, 37 °C).
The MIC of `CC[P+](CC)(CC)[Au-][S][C@@H]1O[C@H](COC(C)=O)[C@H](OC(C)=O)[C@H](OC(C)=O)[C@H]1OC(C)=O` is reported as 47 µM (NCTC 13420).
The MIC of `CC(=O)N[C@H](CCCCN)C(=O)N[C@H](CC(C)C)C(=O)N[C@H](CCCCN)C(=O)N[C@H](CO)C(=O)N[C@H](CC(C)C)C(=O)N[C@H](CC(C)C)C(=O)N[C@H](CCCCN)C(=O)N[C@@H](C(=O)N[C@H](CC(C)C)C(=O)N[C@H](CO)C(=O)N[C@H](CCCCN)C(=O)N[C@H](C)C(=O)N[C@H](CCCCN)C(=O)N[C@H](CCCCN)C(=O)N[C@H](CCCCN)C(=O)N[C@H](CC(C)C)C(=O)N[C@H](CC(C)C)C(=O)N[C@H](CCCCN)C(=O)N[C@@H](C(=O)N[C@H](C)C(=O)N[C@H](CC(C)C)C(=O)N[C@H](CCCCN)C(=O)N[C@H](C)C(=O)N[C@H](CC(C)C)C(=O)N[C@H](CO)C(=O)N[C@H](CCCCN)C(N)=O)[C@H](C)O)[C@H](C)O` is reported as 0.3 µM (821, Mueller-Hinton broth; 24 h, 37 °C).
The MIC of `NC[C@H]1O[C@H](O[C@H]2[C@H](OCCCCCCCCCCCCn3cc(CNc4nc(NCc5cn(CCCCCCCCCCCCO[C@@H]6[C@@H](O)[C@H](N)C[C@H](N)[C@H]6O[C@H]6O[C@H](CN)[C@@H](O)C[C@H]6N)nn5)nc(NCc5cn(CCCCCCCCCCCCO[C@@H]6[C@@H](O)[C@H](N)C[C@H](N)[C@H]6O[C@H]6O[C@H](CN)[C@@H](O)C[C@H]6N)nn5)n4)nn3)[C@@H](O)[C@H](N)C[C@@H]2N)[C@H](N)C[C@@H]1O` is reported as 32 µg/mL (microbial growth, broth dilution; ATCC17978).
The MIC of `CC(C)C[C@H](NC(=O)[C@H](CC(N)=O)NC(=O)[C@H](CCCNC(=N)N)NC(=O)[C@@H](CC(C)C)NC(=O)[C@H](Cc1ccccc1)NC(=O)[C@H](CC(=O)O)NC(=O)[C@H](CCCCN)NC(=O)[C@@H](CC(C)C)NC(=O)[C@H](CCCNC(=N)N)NC(=O)[C@H](CCC(N)=O)NC(=O)[C@@H](NC(=O)[C@@H](CC(C)C)NC(=O)[C@H](CCCNC(=N)N)NC(=O)[C@H](CCCCN)NC(=O)[C@H](Cc1ccccc1)NC(=O)CN)C(C)C)C(=O)N[C@H](C(N)=O)C(C)C` is reported as 6.2 to 12.5 µM (broth microdilution; B2367-12).
With `CCOC(=O)c1ccc2c(c1)n(CC)[c]([Au-][Cl])[n+]2CC` the MIC was 16.7 µM (broth dilution; DSM 30007; 20 h, 37 °C).
With `CC(C)C[C@H](NC(=O)[C@H](CC(N)=O)NC(=O)[C@H](CCCNC(=N)N)NC(=O)[C@@H](CC(C)C)NC(=O)[C@H](Cc1ccccc1)NC(=O)[C@H](CC(=O)O)NC(=O)[C@H](CCCCN)NC(=O)[C@@H](CC(C)C)NC(=O)[C@H](CCCNC(=N)N)NC(=O)[C@H](CCC(N)=O)NC(=O)[C@@H](NC(=O)[C@@H](CC(C)C)NC(=O)[C@H](CCCNC(=N)N)NC(=O)[C@H](CCCCN)NC(=O)[C@H](Cc1ccc(C(F)(F)F)cc1)NC(=O)CN)C(C)C)C(=O)N[C@H](C(N)=O)C(C)C` the MIC was 3.1 to 6.2 µM (broth microdilution; B2367-12).
With `COc1ccc2ccc3c(c2c1)C=[N+]1C2CCCCC2[N+]2=Cc4ccccc4[O][Au-]21[O]3.F[P-](F)(F)(F)(F)F` (stereo not shown) the MIC was greater than 20 µM (bacterial growth, broth microdilution; carbapenem-resistant clinical isolate; 24 h).
`CC(C)C(O)C(NC(=O)[C@H](Cc1ccc(O)cc1)NC(=O)C(Cc1ccc(O)cc1)[N+](C)(C)C)C(=O)N[C@@H](C)C(=O)O` (stereo partly shown) has an MIC of greater than 100 µM (ATCC 19606).
With `c1ccc(CN2CCOCCOCCN(CCCCCCCCCCN3CCOCCOCCN(CCCCCCCCCCN4CCOCCOCCN(Cc5ccccc5)CCOCCOCC4)CCOCCOCC3)CCOCCOCC2)cc1` the MIC was 26 µM (meropenem-resistant).
The MIC of `COc1ccc2ccc3c(c2c1)C=[N+]1C2CCCCC2[N+]2=Cc4cccc(OC)c4[O][Au-]21[O]3.F[P-](F)(F)(F)(F)F` (stereo not shown) is reported as 20 µM (bacterial growth, broth microdilution; carbapenem-resistant clinical isolate; 24 h).
For `c1ccc(CN2CCOCCOCCN(CCCCCCCCCCCCCCN3CCOCCOCCN(CCCCCCCCCCCCCCN4CCOCCOCCN(Cc5ccccc5)CCOCCOCC4)CCOCCOCC3)CCOCCOCC2)cc1`, the MIC was 3 µM (fluoroquinolone-resistant).
`Nc1nc(-c2ccc(NC(=O)c3cc(Cl)cc(Cl)c3)cc2)c[nH]1` has an MIC of 100 µM (microbial growth, broth dilution; AB5075).
`CC1=C[C@@]2(C)C(=C(C)[C@H]3[C@@H]4C[C@H](C)C[C@H](C)[C@H]4[C@H]4Oc5ccc(cc5)C[C@]5(O)NC(=O)[C@]6(O[C@H]65)C(=O)[C@@H]2[C@@H]43)[C@H]1C` has an MIC of 3.1 µM (broth microdilution; ATCC BAA-1605; added: colistin 0.1 µM).
The MIC of `C=CCCNS(=O)(=O)c1ccc(-n2nnc(/C(C)=N/NC(=N)N)c2C)cc1` is reported as greater than 64 µg/mL (microbial growth, broth dilution; AB5075).
The MIC of `CC(C)CS[C@H]1[C@H](O)[C@@H](N)[C@@H](O[C@H]2[C@H](O[C@@H]3O[C@H](CO)[C@@H](O[C@H]4O[C@@H](CN)[C@@H](O)[C@H](O)[C@H]4N)[C@H]3O)[C@@H](O)[C@H](N)C[C@@H]2N)O[C@@H]1CO` is reported as 8 µg/mL (reference strain).
`CN1/C(=C/C=C/c2cc(-c3ccccc3)cc(-c3ccccc3)[o+]2)C(C)(C)c2ccccc21` has an MIC of 2.5 µg/mL (microbial growth, broth dilution; BAA1605).
`O=C(NCCNCCO)c1cn(Cc2ccccc2)c2c(Cl)c(OCc3ccc(C(F)(F)F)cc3)c(Cl)cc2c1=O` gave an MIC of greater than 32 µg/mL (ATCC 19606; ≥80% growth inhibition).
`COc1ccc2ccc3c(c2c1)C=[N+]1C2CCCCC2[N+]2=Cc4c(F)cccc4[O][Au-]21[O]3.F[P-](F)(F)(F)(F)F` (stereo not shown) has an MIC of greater than 20 µM (bacterial growth, broth microdilution; carbapenem-resistant clinical isolate; 24 h).
For `CCCCCNS(=O)(=O)c1ccc(-n2nnc(/C(C)=N/NC(=N)N)c2C)cc1`, the MIC was greater than 64 µg/mL (microbial growth, broth dilution; AB5075).
`Cc1ccc(-c2nc3ccc(-c4c[nH]c(N)n4)cc3[nH]2)cc1` has an MIC of no less than 200 µM (microbial growth, broth dilution; AB5075).
`COc1ccc2ccc3c(c2c1)C=[N+]1C2CCCCC2[N+]2=Cc4cccc(F)c4[O][Au-]21[O]3.F[P-](F)(F)(F)(F)F` (stereo not shown) gave an MIC of greater than 20 µM (bacterial growth, broth microdilution; carbapenem-resistant clinical isolate; 24 h).
For `O=C(O)c1ccc(-n2cc(/C=N/Nc3cccc(Cl)c3F)c(-c3ccc4ccccc4c3)n2)cc1`, the MIC was greater than 50 µg/mL (broth microdilution with resazurin; ATCC 747).

Excerpt of the above:
With `c1ccc(CN2CCOCCOCCN(CCCCCCCCCCN3CCOCCOCCN(CCCCCCCCCCN4CCOCCOCCN(Cc5ccccc5)CCOCCOCC4)CCOCCOCC3)CCOCCOCC2)cc1` the MIC was 26 µM (meropenem-resistant).
The MIC of `COc1ccc2ccc3c(c2c1)C=[N+]1C2CCCCC2[N+]2=Cc4cccc(OC)c4[O][Au-]21[O]3.F[P-](F)(F)(F)(F)F` (stereo not shown) is reported as 20 µM (bacterial growth, broth microdilution; carbapenem-resistant clinical isolate; 24 h).
For `c1ccc(CN2CCOCCOCCN(CCCCCCCCCCCCCCN3CCOCCOCCN(CCCCCCCCCCCCCCN4CCOCCOCCN(Cc5ccccc5)CCOCCOCC4)CCOCCOCC3)CCOCCOCC2)cc1`, the MIC was 3 µM (fluoroquinolone-resistant).
`Nc1nc(-c2ccc(NC(=O)c3cc(Cl)cc(Cl)c3)cc2)c[nH]1` has an MIC of 100 µM (microbial growth, broth dilution; AB5075).
